Assay results gathered from unrelated publications.
Each numbered part is a random draw from the data of one study; scales do not carry over between parts.

Set 1 — effect on: enzyme activity; action: inhibitor; tested at: 0.5 µM; baseline: control
Target: Mitogen-activated protein kinase kinase kinase 3 (MAP3K3, Homo sapiens, UniProt Q99759)
Construct (Q99759 1-626): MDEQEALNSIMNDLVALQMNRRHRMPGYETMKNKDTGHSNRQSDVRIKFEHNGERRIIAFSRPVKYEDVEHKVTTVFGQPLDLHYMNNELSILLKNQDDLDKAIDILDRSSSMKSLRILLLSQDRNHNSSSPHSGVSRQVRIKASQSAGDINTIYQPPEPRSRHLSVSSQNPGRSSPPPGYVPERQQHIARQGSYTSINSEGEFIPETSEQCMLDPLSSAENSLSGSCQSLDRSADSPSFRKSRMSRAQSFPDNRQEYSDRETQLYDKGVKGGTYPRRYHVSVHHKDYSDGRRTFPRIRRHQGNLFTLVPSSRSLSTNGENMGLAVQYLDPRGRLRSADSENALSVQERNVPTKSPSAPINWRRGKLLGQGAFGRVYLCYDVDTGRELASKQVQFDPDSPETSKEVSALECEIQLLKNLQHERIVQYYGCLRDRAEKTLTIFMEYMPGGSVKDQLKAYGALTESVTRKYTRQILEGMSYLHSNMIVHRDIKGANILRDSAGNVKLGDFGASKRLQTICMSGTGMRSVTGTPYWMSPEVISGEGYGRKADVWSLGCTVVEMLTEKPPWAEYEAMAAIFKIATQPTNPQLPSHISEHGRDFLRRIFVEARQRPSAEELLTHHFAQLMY
SMILES	remaining activity [%]
Clc1ccc(Nc2nnc(Cc3ccncc3)c3ccccc23)cc1	118
O=C1c2ccccc2-c2nc3nnnn3nc21	134
CC(C)n1cnc2c(Nc3cccc(Cl)c3)nc(NCCO)nc21	97.4
Nc1nc(Nc2ccc(S(N)(=O)=O)cc2)nn1C(=S)Nc1c(F)cccc1F	5.41
NC(=O)c1cccc(-c2cc(Nc3ccc(OC(F)(F)F)cc3)ncn2)c1	104
C[C@@H](N)[C@H]1CC[C@H](C(=O)Nc2ccncc2)CC1	103
O=C(c1ccccc1)c1ccc(N2CCOCC2)cc1O	97.8
NC(=O)c1ccc(-c2nc(-c3ccc4c(c3)OCCO4)c(-c3ccccn3)[nH]2)cc1	115
c1cc(-c2cnn3cc(-c4ccc(OCCN5CCCCC5)cc4)cnc23)ccn1	102
CC(C)N(CCC(=O)c1ccc2ccccc2c1)Cc1ccccc1	102
O=Nc1c(-c2c(O)[nH]c3ccccc23)[nH]c2ccccc12	94.4
N#CC(c1ccnc(NCCc2cccnc2)n1)c1nc2ccccc2s1 (stereo not shown)	94.7
CCN(CC)CCCCN1c2ccccc2Oc2ccc(Cl)cc21	103
CCCCc1c(-c2ccc(O)cc2)[nH]c2nccnc12	127
CNc1cc2c(Nc3cccc(Br)c3)ncnc2cn1	73.3
FC(F)(F)c1ccc(/C=C/c2nc(COc3ccc(CCCCn4ccnn4)cc3)co2)cc1	112
N#C/C(=C(/N)SC1C=CC=CC1)c1cccc(C(O)c2ccncc2)c1 (stereo not shown)	107
O=C1NC(=O)/C(=C/c2ccc3c(c2)OC(F)(F)O3)S1	103
O=c1c(-c2ccc(F)cc2)c(-c2ccncc2)[nH]n1-c1ccc(Cl)cc1	96.2
CC(C)(C)c1nc2c3cc[nH]c(=O)c3c3cc(F)ccc3c2[nH]1	61.1
COc1cc2c(Nc3ccc(Br)cc3F)ncnc2cc1OCC1CCN(C)CC1	102
O=C(O)/C=C/c1cc(Br)c(Br)c(Br)c1Br	105

Set 2 — effect on: kinase activity; action: inhibitor; technique: ADP-Glo; time: 1 h
SMILES: CC[C@@H](C)c1nc2cc(Nc3ccnc4ccc(S(=O)(=O)C(C)C)cc34)ccc2s1
Target: Receptor-interacting serine/threonine-protein kinase 3 (RIPK3, Homo sapiens, UniProt Q9Y572)
Sequence of UniProt Q9Y572 (whole entry, looked up): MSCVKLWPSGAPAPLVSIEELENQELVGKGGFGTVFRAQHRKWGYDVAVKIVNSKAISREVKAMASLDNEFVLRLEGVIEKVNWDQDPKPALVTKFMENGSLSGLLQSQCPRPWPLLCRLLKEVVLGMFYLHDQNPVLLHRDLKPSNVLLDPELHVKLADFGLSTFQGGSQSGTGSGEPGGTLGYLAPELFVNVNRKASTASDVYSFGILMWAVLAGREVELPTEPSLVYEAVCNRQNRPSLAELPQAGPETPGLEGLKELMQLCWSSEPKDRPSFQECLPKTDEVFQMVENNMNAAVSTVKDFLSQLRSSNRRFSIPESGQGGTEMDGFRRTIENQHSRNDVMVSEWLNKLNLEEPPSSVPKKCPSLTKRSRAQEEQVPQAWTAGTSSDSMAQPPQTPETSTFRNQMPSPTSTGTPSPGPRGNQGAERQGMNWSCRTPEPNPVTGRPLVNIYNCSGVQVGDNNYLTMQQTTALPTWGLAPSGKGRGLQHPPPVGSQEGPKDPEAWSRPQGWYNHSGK
tested at	inhibition [%]
18.52 nM	96.4
6.173 nM	73.4
55.56 nM	103
166.7 nM	108
2.058 nM	35.7

Set 3 — effect on: binding; technique: radioligand binding; tested at: 10 µM
Target: Muscarinic acetylcholine receptor M2 (CHRM2, Homo sapiens, UniProt P08172)
Sequence of UniProt P08172 (whole entry, looked up): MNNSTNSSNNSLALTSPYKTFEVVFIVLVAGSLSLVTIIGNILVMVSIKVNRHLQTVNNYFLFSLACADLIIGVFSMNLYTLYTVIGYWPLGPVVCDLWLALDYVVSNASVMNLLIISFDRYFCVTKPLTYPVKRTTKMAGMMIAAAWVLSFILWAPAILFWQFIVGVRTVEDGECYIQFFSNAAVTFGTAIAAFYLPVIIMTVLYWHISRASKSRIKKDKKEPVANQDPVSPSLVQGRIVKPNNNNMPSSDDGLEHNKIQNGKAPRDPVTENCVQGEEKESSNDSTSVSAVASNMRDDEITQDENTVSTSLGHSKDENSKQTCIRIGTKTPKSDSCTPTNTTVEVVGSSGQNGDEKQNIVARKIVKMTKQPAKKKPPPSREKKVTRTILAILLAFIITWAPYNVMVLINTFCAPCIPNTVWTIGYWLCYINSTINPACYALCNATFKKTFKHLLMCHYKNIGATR
Structure (SMILES)	inhibition
CC(=O)N1CCC(c2ccc(C(=O)NC(=N)N)cc2C(F)(F)F)CC1	23.5%
COc1cccc(CNC(=O)c2nc3scc(COCc4ccc(C(=O)O)cc4)c3c(=O)[nH]2)c1	-2.95%
CCCOc1ccc([C@H]2[C@H](C(=O)O)[C@@H](c3ccc4c(c3)OCO4)CN2CC(=O)Nc2c(CC)cccc2CC)cc1	-5.3%
Cc1c(NC(=O)c2cc(C(N)=O)nc3cc(F)ccc23)c(C(F)(F)F)nn1Cc1ccc(C(C)(C)C)cc1	15.3%
Cc1nccc(COC(=O)N2C[C@@H]3[C@@H](CNC(=O)c4ccc5[nH]nnc5c4)[C@@H]3C2)n1	-5.6%
CN([C@@H]1CCc2c(CC(=O)O)c3cc(S(C)(=O)=O)ccc3n2C1)S(=O)(=O)c1ccc(F)cc1	-9.24%
O=C1CCc2cc(Nc3cc(OC4CCOCC4)c([N+](=O)[O-])cc3Cl)ccc2N1	5.41%
C[C@@]1(Cc2ccc(C#N)cc2)C(=O)N(c2cc(Cl)cc(Cl)c2)c2ncc(C(=O)NC3(c4nc(C5CCC5)no4)CC3)n21	-8.35%
CN1CCN(C(=O)C(C)(C)c2ccc(C(=O)Nc3cn4cc(-c5ccncc5)ccc4n3)cc2)CC1	3.82%
CC(=O)Nc1nc(CN2CCC[C@H](Cc3cc(C)nc(C)c3)C2)cs1	8.65%
C[C@H](NC(=O)c1cnc2n1[C@](C)(Cc1ccc(C#N)cc1)C(=O)N2c1cc(Cl)c(F)c(Cl)c1)C(=O)NC1(c2ccccn2)CC1	-13.4%
CNC(=O)c1ccc(Nc2ncc(C(F)(F)F)c(NCc3nccnc3N(C)S(C)(=O)=O)n2)cc1	19.5%
C[C@@H]1CN(c2cc(-c3nn(C)c4ccc(OC5(C)CC5)cc34)ncn2)C[C@H](C)O1	21%
COc1nc2ccc([C@@](O)(c3ccccc3)C3CCN(C(C)=O)CC3)cc2c(Cl)c1Cc1ccc(-n2cccn2)cc1	1.16%
Nc1c(C(=O)NCc2ccc(C(=O)NCCCC3CCCCC3)cc2)cnn1-c1ccccc1	22.5%
CC1=C(C#N)C(c2ccc3c(c2)c(NC(=O)c2ccccc2C)nn3C)C(C#N)=C(C)N1	-2.08%
Cc1cc(C)c(-n2ccn3nc(-c4cccnc4)cc23)cc1NC(=O)c1cc(C#N)cc(S(F)(F)(F)(F)F)c1	10.5%
Cc1c[nH]c2nccc(Oc3c(F)cc(Nc4cc(Cl)nc(N)n4)cc3F)c12	7.41%
O=C1c2ccc(Nc3ccc(F)cc3F)cc2CCc2ccc(OC[C@H](O)CO)cc21	40%
O=C(NC[C@@H]1[C@H]2CN(C(=O)OCc3cc(C(F)(F)F)cc(C(F)(F)F)c3)C[C@@H]12)c1ccc2[nH]nnc2c1	7.11%
CS(=O)(=O)NCC[C@H](NC(=O)c1cncc2c1cnn2-c1ccc(F)cc1)c1ccnc(S(C)(=O)=O)c1	17.4%

Set 4 — species: human; matrix: microsomes or S9; tested at: 2 µM; time: 0.5 h
Compound	remaining compound
N#Cc1c(NC(=O)c2n[nH]c(-n3cnnc3)n2)sc2c1CCCC2	> 100%
O=C(Cn1cnc(C2CC2)cc1=O)N1CCC(N2CC(=O)N(c3ccccc3)C2=O)CC1	91.2%
Cc1cc(-c2c3ccccc3c(Br)c3sc(C)c(C)c23)cc(C)c1O[C@H](Cc1ccccc1)C(=O)O	> 99%
CC1CN(C)C(c2ccccc2)C(C)C12NC(=O)N=C2O (stereo not shown)	60.3%
CC(C)(C)OC(=O)N[C@@H](CC(=O)N1N=CCC1C(=O)OCc1ccccc1)Cc1cc(F)c(F)cc1F (stereo partly shown)	98%
CN1C(=O)c2ccccc2C(C(=O)Nc2nc3ccccc3[nH]2)C1c1ccccc1 (stereo not shown)	61.2%
O=c1c2ccccc2nc(-c2ccco2)n1-c1cccc2ccccc12	90.9%
c1ccc2c(c1)CCCC2N1CCC2(CC1)Oc1ccccc1C1CC(c3ccncc3)=NN12 (stereo not shown)	24.1%
COc1ccccc1NC(=O)C1c2ccccc2Oc2ccccc21	25%
COC(=O)c1c(C(=O)OC)c(-c2ccc(N)cc2)n2c1CCC2	0.0682%
COC(=O)C1=C(\N2CCOCC2)CCCC/C=C\1C(=O)OC	62.3%
CCCc1c(C)[nH]c2[nH]n(-c3ccccc3)c(=O)c2c1=O	79.3%
CC(=O)c1c(C)n(S(=O)(=O)c2ccc(C)cc2)c2ccc(NS(=O)(=O)c3ccc(C)cc3)cc12	9.91%

Excerpt of the above (set 3):
Structure (SMILES)	inhibition
C[C@@H]1CN(c2cc(-c3nn(C)c4ccc(OC5(C)CC5)cc34)ncn2)C[C@H](C)O1	21%
CN1CCN(C(=O)C(C)(C)c2ccc(C(=O)Nc3cn4cc(-c5ccncc5)ccc4n3)cc2)CC1	3.82%
C[C@@]1(Cc2ccc(C#N)cc2)C(=O)N(c2cc(Cl)cc(Cl)c2)c2ncc(C(=O)NC3(c4nc(C5CCC5)no4)CC3)n21	-8.35%
CC1=C(C#N)C(c2ccc3c(c2)c(NC(=O)c2ccccc2C)nn3C)C(C#N)=C(C)N1	-2.08%
Nc1c(C(=O)NCc2ccc(C(=O)NCCCC3CCCCC3)cc2)cnn1-c1ccccc1	22.5%
Cc1nccc(COC(=O)N2C[C@@H]3[C@@H](CNC(=O)c4ccc5[nH]nnc5c4)[C@@H]3C2)n1	-5.6%
CC(=O)N1CCC(c2ccc(C(=O)NC(=N)N)cc2C(F)(F)F)CC1	23.5%
